# Assay results gathered from unrelated publications.
# Each numbered part is a random draw from the data of one study; scales do not carry over between parts.
# UniProt P11388, sequence (whole entry, looked up): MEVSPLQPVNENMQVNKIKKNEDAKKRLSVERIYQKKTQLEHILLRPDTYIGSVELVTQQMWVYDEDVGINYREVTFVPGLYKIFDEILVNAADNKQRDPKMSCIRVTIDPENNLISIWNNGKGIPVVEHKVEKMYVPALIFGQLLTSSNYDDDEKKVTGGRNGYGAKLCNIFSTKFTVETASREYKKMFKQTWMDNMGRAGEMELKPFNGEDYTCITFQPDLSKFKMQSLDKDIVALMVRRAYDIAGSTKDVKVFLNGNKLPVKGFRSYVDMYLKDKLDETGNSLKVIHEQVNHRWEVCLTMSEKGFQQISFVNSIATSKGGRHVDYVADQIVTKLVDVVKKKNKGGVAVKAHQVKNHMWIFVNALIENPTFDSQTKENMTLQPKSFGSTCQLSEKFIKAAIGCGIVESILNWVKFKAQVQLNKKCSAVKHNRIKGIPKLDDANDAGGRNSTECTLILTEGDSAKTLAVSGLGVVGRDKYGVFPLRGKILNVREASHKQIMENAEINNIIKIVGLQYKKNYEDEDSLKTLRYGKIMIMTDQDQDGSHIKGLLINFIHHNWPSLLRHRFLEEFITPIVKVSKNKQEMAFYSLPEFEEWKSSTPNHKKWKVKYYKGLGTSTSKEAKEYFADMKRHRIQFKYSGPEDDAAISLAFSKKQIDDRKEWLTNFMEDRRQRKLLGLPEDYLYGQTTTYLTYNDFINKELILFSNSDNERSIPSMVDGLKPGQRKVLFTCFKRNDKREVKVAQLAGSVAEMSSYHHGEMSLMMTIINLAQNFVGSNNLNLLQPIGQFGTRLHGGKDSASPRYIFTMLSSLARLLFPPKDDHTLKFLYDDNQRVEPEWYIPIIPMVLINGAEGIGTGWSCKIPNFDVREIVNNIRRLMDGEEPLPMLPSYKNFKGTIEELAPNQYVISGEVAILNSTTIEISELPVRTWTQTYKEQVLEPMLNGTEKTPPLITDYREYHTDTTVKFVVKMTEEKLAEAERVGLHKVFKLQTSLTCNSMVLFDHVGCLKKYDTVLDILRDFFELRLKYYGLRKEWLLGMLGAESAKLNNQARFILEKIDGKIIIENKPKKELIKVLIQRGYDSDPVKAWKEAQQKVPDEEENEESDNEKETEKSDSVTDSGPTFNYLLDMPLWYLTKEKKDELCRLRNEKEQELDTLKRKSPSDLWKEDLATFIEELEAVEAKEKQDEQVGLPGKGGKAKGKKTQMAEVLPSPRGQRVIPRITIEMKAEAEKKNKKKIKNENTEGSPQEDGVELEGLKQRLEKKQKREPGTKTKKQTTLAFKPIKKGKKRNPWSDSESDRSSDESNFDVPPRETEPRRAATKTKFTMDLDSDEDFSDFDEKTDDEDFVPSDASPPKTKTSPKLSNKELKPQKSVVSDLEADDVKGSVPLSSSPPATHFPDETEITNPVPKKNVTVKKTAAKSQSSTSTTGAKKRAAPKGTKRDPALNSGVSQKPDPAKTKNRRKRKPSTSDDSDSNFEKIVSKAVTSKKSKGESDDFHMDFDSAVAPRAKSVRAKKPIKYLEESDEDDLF

# Block 1
# SMILES: Fc1ccccc1Cc1nc(-c2nc(C(F)(F)F)n[nH]2)cn2ccnc12
# Host: healthy volunteers
# Setting: single ascending dose
# Reference: placebo
setting,adaptive tracking performance [%]
1 mg,0.48
20 mg,0.67
0.3 mg,0.96
30 mg,-0.26

# Single results of other studies
# B1: susA 23-617 (Bacteroides thetaiotaomicron, UniProt Q8A1G0); sequence looked up; chain TSTIKKVAPTFWWAGMKNPELQILLYGDRISSADVSLSADNITLQEVVKQENPNYLVLYLDLSKAAPQNFDIILKQGKKQTKIPYELKQRRPNASAVEGFDSSDVLYLIMPDRFANGNPSNDIIPGMLEGNVDRNEPFARHGGDLKGIENHLDYIADLGVTSIWLNPIQENDMKEGSYHGYAITDYYQVDRRFGSNEEFRKLTQEANAKGLKVVMDMIFNHCGSDNYLFKDMPSKDWFNFEGNYVQTSFKTATQMDPYASDYEKKIAIDGWFTLTMPDFNQRNRHVATYLIQSSIWWIEYAGINGIRQDTHPYADFDMMARWCKAVNEEYPKFNIVGETWLGNNVLISYWQKDSRLAYPKNSNLPTVMDFPLMEEMNKAFDEETTEWNGGLFRLYEYLSQDIVYSHPMSLLTFLDNHDTSRFYRSEADTKNLDRYKQALTFLLTTRGIPQIYYGTEILMAADKANGDGLLRCDFPGGWPNDTKNCFDAANRTPQQNEAFSFMQKLLQWRKGNEVIAKGQLKHFAPNKGVYVYERKYGDKSVVVFLNGNDREQTIDLVPYQEILPASSAFDLLTEKKVELRNELTLPSREIYLLSF
Substance,tested on,test,test system,setting,how to read,measurement,result
B1 (susA 23-617),itself,SEC,,,,subunits per oligomer,2
N#CCC1CCN(c2nc(Nc3ccc(N4CCC(O)CC4)cc3)c3c(=O)[nH]ncc3n2)CC1,,"Olink multiplex, item: CD163","human, serum","40 mg, day 15, unit not given",reference: placebo,serum level change,-1.38
"enzyme (Bacteroides thetaiotaomicron, UniProt Q89YZ9)",O=[N+]([O-])c1ccc(O[C@H]2O[C@H](CO)[C@@H](O)[C@H](O)[C@H]2O)cc1,steady-state kinetics,,pH 6.6,,Km,88 µM
COC(=O)Nc1c(N)nc(-c2nn(Cc3ccccc3F)c3ncc(F)cc23)nc1N,,,"human, plasma","5 mg, geometric mean, together with: omeprazole",,Cmax,72.7 ng/mL
COc1cc([C@@H]2c3cc4c(cc3[C@@H](O[C@@H]3O[C@@H]5CO[C@@H](C)O[C@H]5[C@H](O)[C@H]3O)[C@H]3COC(=O)[C@H]23)OCO4)cc(OC)c1O,"TOP2A (Homo sapiens, UniProt P11388)",DNA cleavage,,"7.8 µM, replicate 1",,linear DNA,9.57%

# For quick reference, copied from above (single results of other studies):
Substance,tested on,test,test system,setting,how to read,measurement,result
COC(=O)Nc1c(N)nc(-c2nn(Cc3ccccc3F)c3ncc(F)cc23)nc1N,,,"human, plasma","5 mg, geometric mean, together with: omeprazole",,Cmax,72.7 ng/mL
